{"data": "Measurements collected from several papers", "note": "Parts stem from different laboratories: compare values within a part only. Positions count from the first letter of the parent shown.", "sequence of UniProt Q15569 (whole entry, looked up)": "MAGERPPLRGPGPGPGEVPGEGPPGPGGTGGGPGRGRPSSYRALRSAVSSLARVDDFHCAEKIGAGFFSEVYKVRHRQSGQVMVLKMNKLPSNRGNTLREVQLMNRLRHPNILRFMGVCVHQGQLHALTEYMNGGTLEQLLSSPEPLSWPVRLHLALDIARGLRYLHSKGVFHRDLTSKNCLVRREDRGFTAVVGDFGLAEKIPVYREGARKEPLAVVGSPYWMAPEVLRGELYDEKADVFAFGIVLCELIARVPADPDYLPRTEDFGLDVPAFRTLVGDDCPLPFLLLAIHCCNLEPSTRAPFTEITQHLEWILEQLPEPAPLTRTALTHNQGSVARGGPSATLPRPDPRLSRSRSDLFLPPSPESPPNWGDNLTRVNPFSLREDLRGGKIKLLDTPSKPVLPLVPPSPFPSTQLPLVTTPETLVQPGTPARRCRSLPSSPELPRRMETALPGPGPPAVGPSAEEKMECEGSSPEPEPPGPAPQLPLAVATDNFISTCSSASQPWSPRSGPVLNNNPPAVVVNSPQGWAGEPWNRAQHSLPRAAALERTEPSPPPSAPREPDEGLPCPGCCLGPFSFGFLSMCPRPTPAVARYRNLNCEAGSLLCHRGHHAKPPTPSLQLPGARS", "sequence of UniProt Q15375 (whole entry, looked up)": "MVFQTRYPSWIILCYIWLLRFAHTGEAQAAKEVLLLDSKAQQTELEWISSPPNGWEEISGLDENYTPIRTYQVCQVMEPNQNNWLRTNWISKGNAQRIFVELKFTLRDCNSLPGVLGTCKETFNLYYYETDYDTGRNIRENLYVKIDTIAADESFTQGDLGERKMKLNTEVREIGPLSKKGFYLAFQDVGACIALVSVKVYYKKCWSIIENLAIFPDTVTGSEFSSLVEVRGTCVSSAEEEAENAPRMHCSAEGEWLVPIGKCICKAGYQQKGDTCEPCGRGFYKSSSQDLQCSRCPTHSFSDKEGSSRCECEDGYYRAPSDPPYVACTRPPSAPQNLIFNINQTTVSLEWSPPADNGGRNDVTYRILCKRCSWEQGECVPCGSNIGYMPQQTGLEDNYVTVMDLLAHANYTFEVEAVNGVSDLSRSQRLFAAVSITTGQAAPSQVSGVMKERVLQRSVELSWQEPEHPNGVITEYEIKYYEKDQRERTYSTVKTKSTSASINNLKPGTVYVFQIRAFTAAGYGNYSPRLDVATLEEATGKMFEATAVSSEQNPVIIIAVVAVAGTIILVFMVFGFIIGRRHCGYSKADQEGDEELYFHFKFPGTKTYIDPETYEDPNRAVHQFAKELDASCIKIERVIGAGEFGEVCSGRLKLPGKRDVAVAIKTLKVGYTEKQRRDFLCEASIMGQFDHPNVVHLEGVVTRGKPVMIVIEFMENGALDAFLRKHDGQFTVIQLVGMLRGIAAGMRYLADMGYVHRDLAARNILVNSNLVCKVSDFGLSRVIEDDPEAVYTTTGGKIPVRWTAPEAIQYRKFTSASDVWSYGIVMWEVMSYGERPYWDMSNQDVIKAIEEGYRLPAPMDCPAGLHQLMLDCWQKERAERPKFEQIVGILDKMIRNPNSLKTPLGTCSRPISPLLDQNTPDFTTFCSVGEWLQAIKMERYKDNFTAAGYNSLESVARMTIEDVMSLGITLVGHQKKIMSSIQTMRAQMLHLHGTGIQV", "sequence of UniProt Q86UE8 (whole entry, looked up)": "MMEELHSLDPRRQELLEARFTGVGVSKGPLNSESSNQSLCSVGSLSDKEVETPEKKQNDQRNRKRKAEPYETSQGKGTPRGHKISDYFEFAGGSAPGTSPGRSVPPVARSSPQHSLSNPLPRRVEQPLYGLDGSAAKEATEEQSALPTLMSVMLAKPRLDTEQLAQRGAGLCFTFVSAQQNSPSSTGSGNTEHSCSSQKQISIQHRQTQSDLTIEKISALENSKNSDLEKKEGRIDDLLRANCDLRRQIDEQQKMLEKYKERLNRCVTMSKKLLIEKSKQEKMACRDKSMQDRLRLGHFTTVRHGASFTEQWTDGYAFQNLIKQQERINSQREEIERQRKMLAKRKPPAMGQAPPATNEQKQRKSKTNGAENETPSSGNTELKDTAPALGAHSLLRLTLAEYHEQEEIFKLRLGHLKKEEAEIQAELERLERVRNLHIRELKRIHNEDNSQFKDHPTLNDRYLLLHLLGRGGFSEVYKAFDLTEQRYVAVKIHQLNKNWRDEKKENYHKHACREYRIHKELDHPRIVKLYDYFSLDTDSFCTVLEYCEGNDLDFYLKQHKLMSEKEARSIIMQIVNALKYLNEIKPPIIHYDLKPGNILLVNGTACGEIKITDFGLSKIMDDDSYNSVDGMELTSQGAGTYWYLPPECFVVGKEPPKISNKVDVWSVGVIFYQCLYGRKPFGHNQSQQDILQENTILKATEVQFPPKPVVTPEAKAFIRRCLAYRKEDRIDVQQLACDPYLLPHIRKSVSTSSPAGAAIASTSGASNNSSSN", "sequence of UniProt P10721 (whole entry, unmodified, looked up)": "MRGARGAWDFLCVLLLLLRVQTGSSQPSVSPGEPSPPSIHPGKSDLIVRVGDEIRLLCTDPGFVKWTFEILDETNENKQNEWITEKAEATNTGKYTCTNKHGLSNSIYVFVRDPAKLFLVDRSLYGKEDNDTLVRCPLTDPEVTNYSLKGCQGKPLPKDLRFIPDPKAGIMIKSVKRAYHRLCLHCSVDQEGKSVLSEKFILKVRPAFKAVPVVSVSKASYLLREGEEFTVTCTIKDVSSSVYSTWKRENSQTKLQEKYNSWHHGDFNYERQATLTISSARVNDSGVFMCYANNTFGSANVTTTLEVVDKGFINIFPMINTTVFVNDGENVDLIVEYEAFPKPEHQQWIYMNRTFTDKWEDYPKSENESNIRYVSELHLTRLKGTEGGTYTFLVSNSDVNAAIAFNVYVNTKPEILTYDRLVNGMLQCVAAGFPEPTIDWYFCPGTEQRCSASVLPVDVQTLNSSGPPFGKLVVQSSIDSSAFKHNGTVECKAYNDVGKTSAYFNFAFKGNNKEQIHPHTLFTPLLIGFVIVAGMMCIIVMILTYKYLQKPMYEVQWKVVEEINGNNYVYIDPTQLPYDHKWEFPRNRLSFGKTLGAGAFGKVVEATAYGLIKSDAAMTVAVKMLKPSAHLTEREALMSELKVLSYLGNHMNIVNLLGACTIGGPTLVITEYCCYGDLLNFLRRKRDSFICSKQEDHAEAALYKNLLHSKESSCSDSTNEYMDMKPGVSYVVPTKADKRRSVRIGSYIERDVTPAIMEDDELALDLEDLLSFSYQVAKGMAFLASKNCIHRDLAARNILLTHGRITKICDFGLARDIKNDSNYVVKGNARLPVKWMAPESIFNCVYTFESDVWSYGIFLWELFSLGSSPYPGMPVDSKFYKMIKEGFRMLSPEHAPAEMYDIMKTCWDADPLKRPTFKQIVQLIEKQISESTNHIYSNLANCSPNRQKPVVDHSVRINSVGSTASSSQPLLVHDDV", "sequence of UniProt Q13976 (whole entry, looked up)": "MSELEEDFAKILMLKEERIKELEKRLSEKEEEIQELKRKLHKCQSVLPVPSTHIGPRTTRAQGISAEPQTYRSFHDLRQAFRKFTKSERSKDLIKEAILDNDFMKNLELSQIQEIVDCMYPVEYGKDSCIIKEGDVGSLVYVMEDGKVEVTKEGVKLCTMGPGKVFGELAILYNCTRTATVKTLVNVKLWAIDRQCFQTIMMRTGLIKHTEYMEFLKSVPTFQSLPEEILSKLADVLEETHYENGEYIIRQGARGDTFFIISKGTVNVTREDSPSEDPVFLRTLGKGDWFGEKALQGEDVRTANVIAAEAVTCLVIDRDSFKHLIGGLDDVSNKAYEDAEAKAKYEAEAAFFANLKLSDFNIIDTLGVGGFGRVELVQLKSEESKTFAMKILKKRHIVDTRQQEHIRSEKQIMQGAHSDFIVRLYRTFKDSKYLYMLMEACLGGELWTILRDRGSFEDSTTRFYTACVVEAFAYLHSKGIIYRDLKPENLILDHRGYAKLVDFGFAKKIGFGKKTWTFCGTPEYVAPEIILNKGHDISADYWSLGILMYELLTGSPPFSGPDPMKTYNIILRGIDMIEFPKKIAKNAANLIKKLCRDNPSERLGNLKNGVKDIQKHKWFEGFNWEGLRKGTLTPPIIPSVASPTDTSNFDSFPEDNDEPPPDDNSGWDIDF"}
{"data": "Study 1", "Structure (SMILES)": "Nc1c(C(=O)NCc2ccc(C(=O)NCCCC3CCCCC3)cc2)cnn1-c1ccccc1", "method": "competition with immobilised ligand"}
{"target": "Serine/threonine-protein kinase tousled-like 2 (TLK2, Homo sapiens, UniProt Q86UE8)", "read-out": "cell-free assay", "concentration": "0.1 µM", "remaining binding": "100%"}
{"target": "Ribosomal protein S6 kinase alpha-5 (RPS6KA5, Homo sapiens, UniProt O75582)", "read-out": "binding", "concentration": "1 µM", "remaining binding": "23%"}
{"target": "Ephrin type-A receptor 7 (EPHA7, Homo sapiens, UniProt Q15375)", "read-out": "cell-free assay", "concentration": "0.1 µM", "remaining binding": "100%"}
{"target": "Mitogen-activated protein kinase kinase kinase 6 (MAP3K6, Homo sapiens, UniProt O95382)", "read-out": "cell-free assay", "concentration": "0.1 µM", "remaining binding": "100%"}
{"target": "Dual specificity testis-specific protein kinase 1 (TESK1, Homo sapiens, UniProt Q15569)", "read-out": "cell-free assay", "concentration": "0.1 µM", "remaining binding": "100%"}
{"target": "Atypical kinase COQ8A, mitochondrial (COQ8A, Homo sapiens, UniProt Q8NI60)", "read-out": "cell-free assay", "concentration": "0.1 µM", "remaining binding": "100%"}
{"target": "Mast/stem cell growth factor receptor Kit (KIT, Homo sapiens, UniProt P10721, A829P)", "read-out": "cell-free assay", "concentration": "0.1 µM", "remaining binding": "100%"}
{"target": "Serine/threonine-protein kinase TBK1 (TBK1, Homo sapiens, UniProt Q9UHD2)", "read-out": "cell-free assay", "concentration": "0.1 µM", "remaining binding": "96%"}
{"target": "Receptor-type tyrosine-protein kinase FLT3, autoinhibited (FLT3, Homo sapiens, UniProt P36888)", "read-out": "cell-free assay", "concentration": "0.1 µM", "remaining binding": "100%"}
{"target": "Serine/threonine-protein kinase/endoribonuclease IRE1 (ERN1, Homo sapiens, UniProt O75460)", "read-out": "cell-free assay", "concentration": "0.1 µM", "remaining binding": "100%"}
{"target": "Mitogen-activated protein kinase kinase kinase 2 (MAP3K2, Homo sapiens, UniProt Q9Y2U5)", "read-out": "cell-free assay", "concentration": "0.1 µM", "remaining binding": "100%"}
{"target": "Mitogen-activated protein kinase kinase kinase 12 (MAP3K12, Homo sapiens, UniProt Q12852)", "read-out": "cell-free assay", "concentration": "0.1 µM", "remaining binding": "100%"}
{"target": "Serine/threonine-protein kinase MARK2 (MARK2, Homo sapiens, UniProt Q7KZI7)", "read-out": "cell-free assay", "concentration": "0.1 µM", "remaining binding": "65%"}
{"target": "cGMP-dependent protein kinase 1 (PRKG1, Homo sapiens, UniProt Q13976)", "read-out": "cell-free assay", "concentration": "0.1 µM", "remaining binding": "74%"}
{"target": "Mitogen-activated protein kinase 9 (MAPK9, Homo sapiens, UniProt P45984)", "read-out": "cell-free assay", "concentration": "0.1 µM", "remaining binding": "100%"}
{"target": "Cyclin-dependent kinase 16 (CDK16, Homo sapiens, UniProt Q00536)", "read-out": "cell-free assay", "concentration": "0.1 µM", "remaining binding": "97%"}
{"data": "Study 2", "target": "CCNB3, cyclin fold, Cln2 fusion (human)", "method": "yeast growth competition, sequencing", "medium": "yeast", "notes": "strong parent motif", "relative to": "not given", "reading": "higher = stronger binding", "starting sequence": "PKN2 docking peptide (human); VSAVRKLDFSDTM; partner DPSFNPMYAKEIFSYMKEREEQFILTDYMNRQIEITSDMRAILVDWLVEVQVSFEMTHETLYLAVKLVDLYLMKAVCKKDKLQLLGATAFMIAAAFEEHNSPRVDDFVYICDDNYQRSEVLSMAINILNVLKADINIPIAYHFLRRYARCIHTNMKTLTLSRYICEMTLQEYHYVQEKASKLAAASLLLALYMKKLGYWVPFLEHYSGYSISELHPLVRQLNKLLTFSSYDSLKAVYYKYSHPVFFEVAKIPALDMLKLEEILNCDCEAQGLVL"}
{"Variant": "VSYVRKLDFSDTM [A3Y]", "normalised enrichment score": 0.349}
{"Variant": "VSAVPKLDFSDTM [R5P]", "normalised enrichment score": 0.2}
{"Variant": "VSAVRKLDFQDTM [S10Q]", "normalised enrichment score": 0.981}
{"Variant": "VSQVRKLDFSDTM [A3Q]", "normalised enrichment score": -0.0296}
{"Variant": "VSAVRKCDFSDTM [L7C]", "normalised enrichment score": 0.0298}
{"Variant": "VSAVRKDDFSDTM [L7D]", "normalised enrichment score": -0.325}
{"Variant": "VSAVRKLKFSDTM [D8K]", "normalised enrichment score": 0.729}
{"Variant": "VIAVRKLDFSDTM [S2I]", "normalised enrichment score": 1.48}
{"data": "Study 3", "partner": "H2BC9 (Homo sapiens, UniProt Q93079)", "method": "cross-linking MS", "notes": "hits only"}
{"Molecule": "SUB1 (Homo sapiens, UniProt P53999)", "interaction screen": "cross-linked"}
{"Molecule": "TOP2A (Homo sapiens, UniProt P11388)", "interaction screen": "cross-linked"}
{"Molecule": "H2AX (Homo sapiens, UniProt P16104)", "interaction screen": "cross-linked"}
{"Molecule": "H2AC20 (Homo sapiens, UniProt Q16777)", "interaction screen": "cross-linked"}
{"Molecule": "Histone H2B type 1-C/E/F/G/I (Homo sapiens, UniProt P62807)", "interaction screen": "cross-linked"}
{"Molecule": "H3-4 (Homo sapiens, UniProt Q16695)", "interaction screen": "cross-linked"}
{"data": "Study 4", "target": "SRSF protein kinase 3 (SRPK3, Homo sapiens, UniProt Q9UPE1)", "read-out": "enzyme activity", "mode": "inhibitor", "concentration": "0.5 µM", "relative to": "control", "sequence of UniProt Q9UPE1 (whole entry, looked up)": "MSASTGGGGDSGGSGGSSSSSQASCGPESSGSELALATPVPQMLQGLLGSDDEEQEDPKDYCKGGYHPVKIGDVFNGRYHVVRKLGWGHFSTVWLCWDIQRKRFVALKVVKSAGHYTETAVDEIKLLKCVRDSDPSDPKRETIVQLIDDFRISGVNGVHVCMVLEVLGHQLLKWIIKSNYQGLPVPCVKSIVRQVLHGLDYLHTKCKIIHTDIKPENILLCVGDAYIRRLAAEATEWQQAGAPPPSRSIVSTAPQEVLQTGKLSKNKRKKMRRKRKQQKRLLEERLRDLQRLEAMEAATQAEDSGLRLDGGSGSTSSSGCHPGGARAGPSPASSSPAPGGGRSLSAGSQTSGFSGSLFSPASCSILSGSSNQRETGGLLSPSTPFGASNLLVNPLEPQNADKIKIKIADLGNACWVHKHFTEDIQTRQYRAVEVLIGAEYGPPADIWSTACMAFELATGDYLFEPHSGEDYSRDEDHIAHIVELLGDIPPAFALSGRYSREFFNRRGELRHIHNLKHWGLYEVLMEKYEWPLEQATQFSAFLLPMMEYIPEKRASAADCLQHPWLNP"}
{"Structure (SMILES)": "Nc1[nH]nc2nnc(-c3c(-c4ccccc4)nn4ccccc34)cc12", "remaining activity [%]": 88.9}
{"Structure (SMILES)": "Cc1ccc(NC(=O)c2ccc(CN3CCN(C)CC3)cc2)cc1Nc1nccc(-c2cccnc2)n1", "remaining activity [%]": 98}
{"Structure (SMILES)": "COc1cc2ncnc(Nc3ccc(OCc4ccccc4)cc3)c2cc1OC", "remaining activity [%]": 92.8}
{"Structure (SMILES)": "Cn1cc(/C=C2\\C(=O)Nc3ccc(S(N)(=O)=O)cc32)c2ccccc21", "remaining activity [%]": 88.5}
{"Structure (SMILES)": "CN(C)CCCn1cc(C2=C(c3c[nH]c4ccccc34)C(=O)NC2=O)c2ccccc21", "remaining activity [%]": 86.9}
{"Structure (SMILES)": "CS(=O)(=O)CCNCc1ccc(-c2ccc3ncnc(Nc4ccc(OCc5cccc(F)c5)c(Cl)c4)c3c2)o1", "remaining activity [%]": 104}
{"Structure (SMILES)": "O=C(Nc1ccc(Cl)cc1)c1ccccc1NCc1ccncc1", "remaining activity [%]": 100}
{"note": "For quick reference, copied from above (study 3):"}
{"Molecule": "H2AC20 (Homo sapiens, UniProt Q16777)", "interaction screen": "cross-linked"}
{"Molecule": "H3-4 (Homo sapiens, UniProt Q16695)", "interaction screen": "cross-linked"}
{"Molecule": "TOP2A (Homo sapiens, UniProt P11388)", "interaction screen": "cross-linked"}
{"Molecule": "Histone H2B type 1-C/E/F/G/I (Homo sapiens, UniProt P62807)", "interaction screen": "cross-linked"}
{"Molecule": "SUB1 (Homo sapiens, UniProt P53999)", "interaction screen": "cross-linked"}
{"Molecule": "H2AX (Homo sapiens, UniProt P16104)", "interaction screen": "cross-linked"}
